# Published values gathered from unrelated publications.
# Each line is one published result; not all experiments were run side by side.
# Organism: Escherichia coli
Structure (SMILES),test,system,setting,scale,measurement,result
CC[C@H](C)[C@H](NC(=O)[C@H](CCCCN)NC(=O)[C@H](CCCCN)NC(=O)[C@H](CC(C)C)NC(=O)[C@H](CCCCN)NC(=O)[C@H](CCC(=O)O)NC(=O)[C@H](CCCCN)NC(=O)[C@@H](NC(=O)[C@H](CCCCN)NC(=O)[C@H](CC(N)=O)NC(=O)[C@H](CCCNC(=N)N)NC(=O)[C@H](Cc1ccccc1)NC(=O)[C@H](CCCCN)NC(=O)[C@H](CCCNC(=N)N)NC(=O)[C@H](CC(C)C)NC(=O)[C@H](CCCNC(=N)N)NC(=O)[C@H](CCCCN)NC(=O)[C@H](CCCNC(=N)N)NC(=O)[C@H](CC(C)C)NC(=O)[C@@H](N)CCCNC(=N)N)[C@@H](C)CC)C(=O)NCC(=O)N[C@@H](CCC(N)=O)C(=O)N[C@@H](CCCCN)C(=O)N[C@H](C(=O)N[C@@H](CCC(N)=O)C(=O)NCC(=O)N[C@@H](Cc1ccccc1)C(=O)N[C@H](C(=O)N1CCC[C@H]1C(=O)N[C@@H](CCCCN)C(=O)N[C@@H](CC(C)C)C(=O)N[C@@H](CCC(N)=O)C(=O)N1CCC[C@H]1C(=O)N[C@@H](CO)C(=O)N[C@@H](CCCCN)C(=O)N[C@@H](CCC(N)=O)C(=O)N[C@@H](CO)C(=O)O)C(C)C)[C@@H](C)CC,inhibition zone,Am. J23a,,,lethal concentration,2.89 µM
CCCC(=O)NCC(=O)N[C@@H](CC(C)C)C(=O)N[C@@H](CC(C)C)C(=O)N[C@@H](CCCCN)C(=O)N[C@@H](CCCNC(=N)N)C(=O)N[C@H](C(=O)N[C@@H](CCCCN)C(=O)N[C@H](C(=O)N[C@@H](CC(C)C)C(=O)N[C@@H](CC(C)C)C(=O)NCCCC[C@H](NC(=O)[C@H](CC(C)C)NC(=O)[C@H](CC(C)C)NC(=O)[C@@H](NC(=O)[C@H](CCCCN)NC(=O)[C@@H](NC(=O)[C@H](CCCNC(=N)N)NC(=O)[C@H](CCCCN)NC(=O)[C@H](CC(C)C)NC(=O)[C@H](CC(C)C)NC(=O)CNC(=O)CCC)[C@@H](C)CC)[C@@H](C)O)C(N)=O)[C@@H](C)O)[C@@H](C)CC,checkerboard,ATCC 25922,together with: gentamicin,,FIC index,0.5
CC[C@H](C)[C@H](NC(=O)[C@H](CCCCN)NC(=O)[C@H](CCCCN)NC(=O)[C@H](CC(C)C)NC(=O)[C@H](CCCCN)NC(=O)[C@H](CCC(=O)O)NC(=O)[C@H](CCCCN)NC(=O)[C@@H](NC(=O)[C@H](CCCCN)NC(=O)[C@H](CC(N)=O)NC(=O)[C@H](CCCNC(=N)N)NC(=O)[C@H](Cc1ccccc1)NC(=O)[C@H](CCCCN)NC(=O)[C@H](CCCNC(=N)N)NC(=O)[C@H](CC(C)C)NC(=O)[C@H](CCCNC(=N)N)NC(=O)[C@H](CCCCN)NC(=O)[C@H](CCCNC(=N)N)NC(=O)[C@@H](N)CC(C)C)[C@@H](C)CC)C(=O)NCC(=O)N[C@@H](CCC(N)=O)C(=O)N[C@@H](CCCCN)C(=O)N[C@H](C(=O)N[C@@H](CCC(N)=O)C(=O)NCC(=O)N[C@@H](Cc1ccccc1)C(=O)N[C@H](C(=O)N1CCC[C@H]1C(=O)N[C@@H](CCCCN)C(=O)N[C@@H](CC(C)C)C(=O)O)C(C)C)[C@@H](C)CC,inhibition zone,DH5α,,,lethal concentration,1.46 µM
CC[C@H](C)[C@@H]1NC(=O)[C@H](CCCCN)NC(=O)[C@@H](NC(=O)[C@H](C)NC(=O)[C@@H](NC(=O)[C@H](CC(C)C)NC(=O)[C@H](CC(N)=O)NC(=O)[C@@H](NC(=O)CNC(=O)[C@H](CC(C)C)NC(=O)[C@H](CCCNC(=N)N)NC(=O)[C@H](C)NC(=O)[C@H](CC(C)C)NC(=O)[C@H](CC(=O)O)NC(=O)[C@H](CCCCN)NC(=O)CNC(=O)[C@H](CC(C)C)NC(=O)CNC(=O)[C@H](CCCCN)NC(=O)[C@H](CO)NC(=O)[C@H](C)NC(=O)[C@H](Cc2ccccc2)NC(=O)[C@H](CCCCN)NC(=O)[C@H](C)NC(=O)[C@@H](NC(=O)CNC(=O)[C@H](CCCNC(=N)N)NC(=O)[C@H](Cc2ccccc2)NC(=O)[C@@H](NC(=O)[C@H](CO)NC(=O)[C@H](CO)NC(=O)[C@H](Cc2ccccc2)NC(=O)CN)[C@@H](C)CC)C(C)C)C(C)C)C(C)C)CSSC[C@@H](C(=O)O)NC(=O)[C@H](CCC(N)=O)NC(=O)[C@H](CCCCN)NC(=O)[C@H](CO)NC1=O,,ATCC 8739,2 × MIC,,time to complete killing,20 min
CC[C@H](C)[C@H](NC(=O)[C@H](CCCNC(=N)N)NC(=O)[C@@H](N)CCCNC(=N)N)C(=O)N[C@@H](CCCNC(=N)N)C(=O)N[C@@H](Cc1ccccc1)C(=O)N[C@@H](CCCNC(=N)N)C(=O)N1CCC[C@H]1C(=O)N1CCC[C@H]1C(=O)N[C@@H](Cc1ccc(O)cc1)C(=O)N[C@@H](CC(C)C)C(=O)N1CCC[C@H]1C(=O)N[C@@H](CCCNC(=N)N)C(=O)N1CCC[C@H]1C(=O)NCC(=O)N[C@@H](CCCNC(=N)N)C(=O)N[C@@H](CCCNC(=N)N)C(=O)N1CCC[C@H]1C(=O)N[C@@H](CCCNC(=N)N)C(=O)N[C@@H](Cc1ccccc1)C(=O)N1CCC[C@H]1C(=O)N1CCC[C@H]1C(=O)N1CCC[C@H]1C(=O)N[C@@H](Cc1ccccc1)C(=O)N1CCC[C@H]1C(=O)N[C@H](C(=O)N1CCC[C@H]1C(=O)N[C@@H](CCCNC(=N)N)C(=O)N[C@H](C(=O)N1CCC[C@H]1C(=O)N[C@@H](CCCNC(=N)N)C(=O)N[C@H](C(=O)N1CCC[C@H]1C(=O)O)[C@@H](C)CC)[C@@H](C)CC)[C@@H](C)CC,"membrane permeabilization, propidium iodide flow cytometry","BW25113, Mueller-Hinton broth","8 µM, 15 min, 37 °C",,PI-positive cells,~70%
CC[C@H](C)[C@H](NC(=O)[C@H](CCN)NC(=O)CCCCCCCCCCCNC(=O)CCCCCOC(=O)c1cn(C2CC2)c2cc(N3CCNCC3)c(F)cc2c1=O)C(=O)N[C@@H](CCN)C(=O)N[C@H](Cc1ccccc1)C(=O)N[C@@H](CC(C)C)C(=O)N[C@@H](CCN)C(=O)N[C@@H](C(=O)N[C@@H](CC(C)C)C(=O)N[C@@H](CO)C(N)=O)C(C)C,,,"6.25 µM, 4 h, 37 °C",,survival,32.2%
C[C@]1(COC(=O)c2ccccc2O)[C@H](C(=O)O)N2C(=O)/C(=C/c3ccccn3)[C@H]2S1(=O)=O,broth microdilution,TG1 expressing CMY-2,16 µg/mL,,MIC of ceftazidime,0.12 µg/mL
O=C(O)[C@@H]1Cc2c([nH]c3ccccc23)[C@@H](c2ccc(F)cc2I)N1,,BL21(DE3),"250 µM, 18 h",,growth inhibition,0%
CCCCCCCCCCCCCCC(=O)N[C@@H](CCCCN)C(=O)N[C@@H](CCCCN)C(=O)N[C@@H](CCCCN)C(=O)N[C@@H](CCCCN)C(=O)N[C@@H](CCCCN)C(N)=O,,K12,,,MBC,128 µg/mL
Cc1ncc(/C=N/NC(=O)c2cc3c(s2)CCCC3)cn1,,TolC,50 µM,,growth inhibition,24%
CC[C@H](C)[C@H](NC(=O)[C@H](CCCNC(=N)N)NC(=O)[C@H](CCCCN)NC(=O)[C@H](CC(C)C)NC(=O)[C@H](CC(C)C)NC(=O)CN)C(=O)N[C@@H](CCCCN)C(=O)N[C@H](C(=O)N[C@@H](CC(C)C)C(=O)N[C@@H](CC(C)C)C(=O)NCCCC[C@H](NC(=O)[C@H](CC(C)C)NC(=O)[C@H](CC(C)C)NC(=O)[C@@H](NC(=O)[C@H](CCCCN)NC(=O)[C@@H](NC(=O)[C@H](CCCNC(=N)N)NC(=O)[C@H](CCCCN)NC(=O)[C@H](CC(C)C)NC(=O)[C@H](CC(C)C)NC(=O)CN)[C@@H](C)CC)[C@@H](C)O)C(=O)NCCCC[C@H](NC(=O)[C@H](CCCCNC(=O)[C@H](CC(C)C)NC(=O)[C@H](CC(C)C)NC(=O)[C@@H](NC(=O)[C@H](CCCCN)NC(=O)[C@@H](NC(=O)[C@H](CCCNC(=N)N)NC(=O)[C@H](CCCCN)NC(=O)[C@H](CC(C)C)NC(=O)[C@H](CC(C)C)NC(=O)CN)[C@@H](C)CC)[C@@H](C)O)NC(=O)[C@H](CC(C)C)NC(=O)[C@H](CC(C)C)NC(=O)[C@@H](NC(=O)[C@H](CCCCN)NC(=O)[C@@H](NC(=O)[C@H](CCCNC(=N)N)NC(=O)[C@H](CCCCN)NC(=O)[C@H](CC(C)C)NC(=O)[C@H](CC(C)C)NC(=O)CN)[C@@H](C)CC)[C@@H](C)O)C(N)=O)[C@@H](C)O,checkerboard,ATCC 25922,together with: rifampicin,,FIC index,0.25
C[C@@](O)(C(F)F)[C@H](NC(=O)c1ccc(C#CC#CC2CC2)cc1)C(=O)NO,broth microdilution,W3110,together with: mouse plasma 50%,baseline: CAMHB alone,MIC fold increase,9

# Some of these lines once more:
Structure (SMILES),test,system,setting,scale,measurement,result
Cc1ncc(/C=N/NC(=O)c2cc3c(s2)CCCC3)cn1,,TolC,50 µM,,growth inhibition,24%
